Published values from different studies.
Each line is one published result; not all experiments were run side by side. ± marks the error that the study gave.

The Cmax of CCCCCCCOc1ccc(CCC(N)(CO)CO)cc1C(F)(F)F.Cl is reported as 0.15 ng/mL (healthy men, plasma; oral, 0.25 mg, day 1).
OC[C@H]1O[C@@H](c2cc(Cc3ccc(C4CC4)cc3)c(Cl)c3c2CCO3)[C@H](O)[C@@H](O)[C@@H]1O has a Cmax of 4.52 ± 1.18 ng/mL (healthy Korean adults, fasted, plasma; oral, 0.3 mg single dose, separate tablets, with: co-administered drug 50 mg).
With CCc1nc2c(C)cc(N3CCN(CC(=O)N4CC(O)C4)CC3)cn2c1N(C)c1nc(-c2ccc(F)cc2)c(C#N)s1 the Cmax was 7500 ng/mL (healthy volunteers, fed, plasma; oral, 600 mg single dose, day 1, capsule).
With CC(C)(CO)c1cc2cc(NC(=O)C3(c4ccc5c(c4)OC(F)(F)O5)CC3)c(F)cc2n1C[C@@H](O)CO the Cmax was 5500 ng/mL (human, plasma; oral, standard ETI dose).
For OC[C@H]1O[C@@H](c2ccc(F)c(Cc3cc4ccccc4s3)c2)[C@H](O)[C@@H](O)[C@@H]1O, the Cmax was 1400 ± 273 ng/mL (Japanese type 2 diabetes patients, plasma; oral, 50 mg/day, day 14).
For Cc1ccc2c(c1)C(=O)[C@]1(O)CCN(c3ccc4nc(C)ccc4c3)C1=N2.Cl, the Cmax was 5450 ± 180 nM (plasma; intravenous, 2 mg/kg).
With Cc1ccc(NC(=O)c2ccc(CN3CCN(C)CC3)cc2)cc1Nc1nccc(-c2cncc(-c3oncc3C)c2)n1 the Cmax was 3320 ± 1870 ng/mL (Parkinson's disease patients, plasma; oral, 100 mg/day, 7 days, steady state).
With O=C([O-])CCCCCCCNC(=O)c1ccccc1O.[Na+] the Cmax was 1920 ng/mL (healthy postmenopausal women; 300 mg, oral contraceptive alone, geometric mean).
For C=CC(=O)NC1CCN(c2ncc3ncnc(Nc4ccc(Oc5ccc6c(c5)ncn6C)c(C)c4)c3n2)CC1, the Cmax was 994 nM (healthy male volunteers, plasma; oral, 60 mg, unlabelled tablet).
For CN[C@H](CC(C)C)C(=O)N[C@H]1C(=O)N[C@@H](CC(N)=O)C(=O)N[C@H]2C(=O)N[C@H]3C(=O)N[C@H](C(=O)N[C@H](C(=O)O)c4cc(O)cc(O)c4-c4cc3ccc4O)[C@H](O)c3ccc(c(Cl)c3)Oc3cc2cc(c3O[C@@H]2O[C@H](CO)[C@@H](O)[C@H](O)[C@H]2O[C@H]2C[C@](C)(N)[C@H](O)[C@H](C)O2)Oc2ccc(cc2Cl)[C@H]1O, the Cmax was 33000 ng/mL (guinea pig, serum; intraperitoneal, 15 mg/kg single).
C=CC(=O)NC1CCN(c2ncc3ncnc(Nc4ccc(Oc5ccc6c(c5)ncn6C)c(C)c4)c3n2)CC1 gave a Cmax of 516 nM (healthy men; oral, 60 mg single dose, with: carbamazepine).
The Cmax of CCCCOCCOc1ccc(-c2ccc3c(c2)/C=C(/C(=O)Nc2ccc([S@@+]([O-])Cc4cncn4CCC)cc2)CCCN3CC(C)C)cc1 is reported as 453 ng/mL (mild hepatic impairment patients, plasma; oral, 150 mg, day 1, single dose, geometric mean).
COc1nnc2ccc(N3CCC(c4ccc(OCCN5CCN(C)C(=O)[C@H]5C)cc4)CC3)nn12 gave a Cmax of 109 nM (patients, plasma; oral, 20 mg twice daily, multiple dose, monotherapy).
With Oc1ccc([C@@H](O)c2cc(-c3ncnc4cc(N5CCOCC5)ccc34)c(F)cc2Cl)nn1 the Cmax was 91.6 ng/mL (geometric mean; healthy volunteers, plasma; oral, 100 mg, fasted tablet).
CCCCCCCCCCCCCCCC(=O)N[C@@H](CCC(=O)NCCCC[C@@H]1NC(=O)[C@H]([C@@H](C)CC)NC(=O)[C@@H](NC(=O)[C@@H]2CCCN2C(=O)[C@H](Cc2ccccc2)NC(=O)[C@H](Cc2c[nH]cn2)NC(=O)[C@@H](NC(=O)[C@H](CC(=O)O)NC(=O)CC(C)C)[C@@H](C)O)CSSC[C@@H](C(=O)N[C@@H](CCCCN)C(N)=O)NC(=O)CNC(=O)[C@H](CCCCN)NC(=O)[C@H](CO)NC(=O)[C@H](CCCNC(=N)N)NC(=O)[C@@H]2CCCN2C(=O)[C@H](CCC(=O)O)NC(=O)[C@H](Cc2ccccc2)NC1=O)C(=O)O gave a Cmax of 460 ± 106 ng/mL (healthy volunteers, plasma; subcutaneous, 45 mg single, lyophilised formulation).
N[C@@H](Cc1ccc(O)c(O)c1)C(=O)O has a Cmax of 5770 nM (Parkinson's disease patients, plasma; oral, low carbidopa Cmax subgroup (<9 µmol/L), median).
With C[C@H]1[C@@H](O)O[C@@H]2O[C@@]3(C)CC[C@H]4[C@H](C)CC[C@@H]1[C@@]24OO3 the Cmax was 566 ng/mL (healthy volunteers, plasma; oral, dose not given, fixed-dose combination).
With COc1c(O)cc(C(=O)O)cc1O the Cmax was 100 ± 40 nM (broiler chickens, serum; oral, in feed, 2000 mg/kg feed, 24 h, wheat diet, no tannins).
With N[C@@H]1c2ccccc2OC12CCN(c1cnc3c(N4CCCc5ncccc54)n[nH]c3n1)CC2 the Cmax was 850 ng/mL (advanced metastatic solid tumour patients, plasma; oral, 60 mg once daily, cycle 1 day 15, geometric mean).
For C=C(F)C(=O)N1CCN(c2nc(OC[C@@H]3CCCN3C)nc3c2CCN(c2cccc4cccc(Cl)c24)C3)C[C@@H]1CC#N, the Cmax was 1270 ng/mL (healthy volunteers, plasma; oral, 400 mg twice daily).
C[C@@](Cc1ccc(O)c(O)c1)(NN)C(=O)O gave a Cmax of 340 nM (Parkinson's disease patients, plasma; oral, high levodopa AUC subgroup (11.5 µmol·h/L), median).
C[C@H]1[C@H]2N(C(=O)CN(C)N2C(=O)NCc2ccccc2)[C@@H](Cc2ccc(OP(=O)(O)O)cc2)C(=O)N1Cc1cccc2cccnc12 has a Cmax of 888 ng/mL (patients, plasma; intravenous infusion, 140 mg/m2 over 4 h, mean).
C[C@@H]1CCO[C@H]2Cn3cc(C(=O)NCc4ccc(F)cc4F)c(=O)c(O)c3C(=O)N12 gave a Cmax of 7100 ng/mL (population PK, post-hoc; children, 6 to <10 kg, plasma; oral, 20 mg dispersible tablet, steady state, geometric mean).
The Cmax of CC(=O)N[C@H]1CC[C@H](NC(=O)CN2CCN(c3nncc(-c4ccc(C)cc4)n3)CC2)CC1 is reported as 1020 ng/mL (men aged ≥65 years, plasma; oral, 100 mg single dose, study).
CC(=O)Nc1ccc(C[C@H](NC(=O)[C@H](CO)NC(=O)[C@@H](Cc2cccnc2)NC(=O)[C@@H](Cc2ccc(Cl)cc2)NC(=O)[C@@H](Cc2ccc3ccccc3c2)NC(C)=O)C(=O)N[C@H](Cc2ccc(NC(C)=O)cc2)C(=O)N[C@@H](CC(C)C)C(=O)N[C@@H](CCCCNC(C)C)C(=O)N2CCC[C@H]2C(=O)N[C@H](C)C(N)=O)cc1 has a Cmax of 20.7 ± 18.6 ng/mL (healthy men, fasted, serum; oral, 20 mg single dose).
For O=C(O)c1cc(O)c(O)c(O)c1, the Cmax was 400 ± 80 nM (broiler chickens, serum; oral, in feed, 2000 mg/kg feed, 24 h, wheat diet with tannins).
COc1ccc2[nH]c([S+]([O-])Cc3ncc(C)c(OC)c3C)nc2c1 (stereo not shown) gave a Cmax of 469 ± 503 ng/mL (LC-MS/MS; healthy Chinese, CYP2C19*3 GG, plasma; oral, 20 mg).
With CNC(=O)c1cc(Oc2ccc(NC(=O)Nc3ccc(Cl)c(C(F)(F)F)c3)cc2)cc[n+]1[O-] the Cmax was 920 ng/mL (patients, plasma; oral, 400 mg twice daily, steady state, without rifampin, geometric mean).
O=C(Nc1cnccc1Cl)N1CCN(Cc2ccc3c(c2)OC(F)(F)O3)CC1 gave a Cmax of 78.9 ng/mL (healthy young men, plasma; oral, 10 mg once daily, day 10).
C[C@@H](N)C1CCN(S(=O)(=O)c2cccc3cnccc23)CC1 has a Cmax of 58 ng/mL (healthy volunteers, fasted, plasma; oral, 250 mg).
O=C(c1cccnc1-c1ccncc1)N1CCC(O)(Cc2ccccc2)CC1 has a Cmax of 850 ng/mL (healthy Japanese adults, plasma; oral, 200 mg single dose, arithmetic mean).
COC(=O)c1ccc2c(c1)NC(=O)/C2=C(\Nc1ccc(N(C)C(=O)CN2CCN(C)CC2)cc1)c1ccccc1 has a Cmax of 34.2 ng/mL (healthy volunteers, plasma; oral, 150 mg, with: pirfenidone).
For CC[C@H](C)CCCCC(=O)N[C@@H](CCN)C(=O)N[C@H](C(=O)N[C@@H](CCN)C(=O)N[C@H]1CCNC(=O)[C@H]([C@@H](C)O)NC(=O)[C@H](CCN)NC(=O)[C@H](CCN)NC(=O)[C@H](CC(C)C)NC(=O)[C@@H](Cc2ccccc2)NC(=O)[C@H](CCN)NC1=O)[C@@H](C)O, the Cmax was 2800 ng/mL (LC-MS/MS; ESKD on long-term intermittent haemodialysis, plasma; intravenous infusion, 0.75 mg/kg single dose over 1 h, arithmetic mean).
For C[C@H]1CN(C(=O)CC#N)[C@]12CCN(c1ncnc3[nH]ccc13)C2, the Cmax was 17 ng/mL (healthy adults, plasma; oral, 3 mg single dose).
CCNC(=O)[C@@H]1CCCN1C(=O)[C@H](CCCNC(=N)N)NC(=O)[C@H](CC(C)C)NC(=O)[C@@H](CC(C)C)NC(=O)[C@H](Cc1ccc(O)cc1)NC(=O)[C@H](CO)NC(=O)[C@H](Cc1c[nH]c2ccccc12)NC(=O)[C@H](Cc1c[nH]cn1)NC(=O)[C@@H]1CCC(=O)N1 gave a Cmax of 2.7 ± 3.6 ng/mL (healthy premenopausal women, plasma; oral, 4 mg once daily, day 29).
With C[C@H](NC(=O)/C(C#N)=C/c1cccc(Br)n1)c1ccccc1 the Cmax was 32.6 ng/mL (LC-MS/MS; patients, plasma; oral, 1 mg/kg, cycle 1 day 1).
For CCc1nc(C(N)=O)c(Nc2ccc(N3CCC(N4CCN(C)CC4)CC3)c(OC)c2)nc1NC1CCOCC1, the Cmax was 1460 ng/mL (patients, plasma; oral, 200 mg once daily, cycle 1 day 15, median).
